Measurements collected from several papers.
Compare with care: the assays were run in different laboratories. pIC50: −log10 of the molar value.
Cell line: B16-F10

SMILES | test | test system | setting | quantity | value
Cc1cc(-c2ccccc2)c2ccc3c(-c4ccccc4)cc(C)nc3c2n1.[Cl-].[Cl-].[Ru+2].c1ccc(-c2ccccn2)nc1.c1ccc(-c2ccccn2)nc1 | cell viability, WST-1 | – | 72 h, dark | pIC50 | < 4.00
C=C1C(=O)OC2CC3=C[C@@H](C/C(C)=C/C(OC(=O)Cc4cccc5ccccc45)[C@H]12)OC3=O (stereo partly drawn) | cell growth or viability, MTT | – | 24 h | pIC50 | 5.57
O=c1[nH]c2ccccc2nc1/C=C/C=C/c1ccccc1 | cell growth or viability, MTT | – | 72 h | pIC50 | 4.98
O=C(NCCc1ccccc1)c1ccccc1-n1c(=O)[nH]c2ccccc2c1=O | cell growth or viability, MTT | – | 24 h | pIC50 | 4.36
C=C(C)[C@@H]1CC[C@]2(C(=O)OCO/N=[N+](\[O-])N3CCCC3)CC[C@]3(C)[C@H](CC[C@@H]4[C@@]5(C)CC[C@H](OC(C)=O)C(C)(C)[C@@H]5CC[C@]43C)[C@@H]12 | western blot | cytosol | 0.25 to 1.0 µM, 48 h | cytochrome c level | increased
O=C1Nc2ccccc2/C1=N/c1ccccc1C(=O)Nc1ccccc1 | cell growth or viability, MTT | – | 24 h | pIC50 | 4.65
C[C@@H](NC(=O)Cc1ccc(Cl)c(SC2C(=O)CC(c3c(Cl)cccc3Cl)CC2=O)c1)c1cccc2ccccc12 (stereo partly drawn) | Western blot | – | concentration not given, 24 h | c-Myc and p-Rb/Rb levels | decreased
C=C1C(=O)O[C@H]2CC3=C[C@@H](C/C(C)=C/[C@@H](OC(=O)/C=C/c4ccccc4)[C@H]12)OC3=O | cell growth or viability, MTT | – | 24 h | pIC50 | 5.41
CC(=O)Nc1ccc(OC(=O)CCC(=O)[O][Pt-2]23([O]C(=O)CCC(=O)Oc4ccc(NC(C)=O)cc4)([NH2+][C@@H]4CCCC[C@H]4[NH2+]2)[O]C(=O)C(=O)[O]3)cc1 | cell growth or viability, MTT | – | 48 h | pIC50 | 4.80
COC(=O)c1ccc(-n2nc(C(F)(F)F)cc2-c2cc(OC)c(OC)c(OC)c2)cc1 | cell growth or viability, SRB | – | – | pIC50 | 5.22
O=c1[nH]c2ccccc2nc1/C=C/c1ccc2ccccc2n1 | cell growth or viability, MTT | – | 72 h | pIC50 | 4.89
COc1cc(C(=O)c2[nH]c(N)nc2-c2cccs2)cc(OC)c1OC | cell growth or viability, SRB | – | – | pIC50 | 6.38

Repeated from above:
SMILES | test | test system | setting | quantity | value
C=C1C(=O)OC2CC3=C[C@@H](C/C(C)=C/C(OC(=O)Cc4cccc5ccccc45)[C@H]12)OC3=O (stereo partly drawn) | cell growth or viability, MTT | – | 24 h | pIC50 | 5.57
